# Assay results pooled from the literature.
# Each numbered part is a random draw from the data of one study; scales do not carry over between parts. Positions count from the first letter of the parent shown.

# Series 1
# Target: DDIT3, bZIP domain (human)
# Method: DHFR protein complementation
# Sample: yeast
# Setting: single substitutions, most at no-binding floor
# Reference: wild-type JUN-FOS pair
# Reading: higher = stronger binding
# Parent: JUN, bZIP domain (human); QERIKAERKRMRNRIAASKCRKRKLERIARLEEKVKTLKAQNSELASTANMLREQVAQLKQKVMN; partner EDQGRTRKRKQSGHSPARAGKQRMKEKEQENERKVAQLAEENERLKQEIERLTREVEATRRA
Variant,binding fitness [natural log]
I28L,0.0679
Q55W,-0.204
K39T,0.172
R30E,0.207
M51E,0.0507
N42I,-1.03
M51L,0.0608
A57V,-0.022
T48Y,0.0065
K39W,-0.459
A40L,-0.0413
Q55I,-0.0569
L52F,-1.09
A57R,-0.0327
K34D,-0.112
L38E,-1.06
A46P,-1.18

# Series 2
# Target: Histone acetyltransferase KAT6A, winged helix 1, GST fusion (KAT6A, Homo sapiens, UniProt Q92794, residues 1-85)
# Method: protein binding microarray
# Form: double-stranded DNA, one strand shown
# Sample: in vitro
# Concentration: not given
# Setting: 8-mer, flanks averaged, mean of 2 arrays, mostly near background
# Reference: not given
# Reading: higher = stronger binding
# Residues (chain): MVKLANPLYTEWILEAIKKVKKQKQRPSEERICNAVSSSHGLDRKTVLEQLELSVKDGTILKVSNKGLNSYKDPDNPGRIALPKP
Strand,E-score
ATTTACGG,0.225
ATGCACGA,-0.0753
GAGGTGAC,-0.0309
ACCAGACT,-0.31
CGGTGGCC,0.232
CCTTAACA,-0.0591
AAGTCCCG,0.184
CGTTTCTA,0.0147
GCGCTAGA,0.268
AGCTCGCG,0.176
GCACCTGA,-0.241
GCCTAAAC,-0.109
CTACTCTA,-0.127
CTGAGGTC,-0.171
ATGGGCGA,-0.0998
CCCAACTA,-0.242
CATGAATG,-0.0791
AATGAGAG,-0.22
GAGGGAGA,-0.283
CACGCATA,0.106

# Series 3
# Target: CCNB2, cyclin fold, Cln2 fusion (human)
# Method: yeast growth competition, sequencing
# Sample: yeast
# Setting: weak parent motif
# Reference: not given
# Reading: higher = stronger binding
# Parent: GMNC docking peptide (human); KNAKRNLSSEFAN
Variant,normalised enrichment score
A3E,0.182
S9A,0.393
E10H,0.261
A12G,0.187
A3F,0.284
S8W,0.771
N2L,0.535
A12Q,0.067
K4N,0.514
S9C,0.59
L7G,0.365
S9P,0.604
A12K,0.692
F11P,-0.322
R5W,0.397
N6K,0.12
S8L,1.13
L7C,0.0785
A3K,0.515
R5Y,0.741
A12E,0.748
S8G,0.653
F11R,0.192
A12H,0.208
K4H,-0.178

# Series 4
# Target: RING finger protein unkempt homolog, zinc fingers 1-6, GST-SBP tag (UNK, Homo sapiens, UniProt Q9C0B0, residues 30-357)
# Method: RNA Bind-n-Seq
# Form: RNA
# Sample: in vitro
# Concentration: not given
# Setting: RNA with constant flanks, human and mouse sites, ends assumed
# Reference: input RNA pool
# Reading: higher = stronger binding
# Shared flanks, not repeated: GGGAGUUCUACAGUCCGACGAUC … CAACAGAGGAUUGAGCAUCA
# Target sequence (chain): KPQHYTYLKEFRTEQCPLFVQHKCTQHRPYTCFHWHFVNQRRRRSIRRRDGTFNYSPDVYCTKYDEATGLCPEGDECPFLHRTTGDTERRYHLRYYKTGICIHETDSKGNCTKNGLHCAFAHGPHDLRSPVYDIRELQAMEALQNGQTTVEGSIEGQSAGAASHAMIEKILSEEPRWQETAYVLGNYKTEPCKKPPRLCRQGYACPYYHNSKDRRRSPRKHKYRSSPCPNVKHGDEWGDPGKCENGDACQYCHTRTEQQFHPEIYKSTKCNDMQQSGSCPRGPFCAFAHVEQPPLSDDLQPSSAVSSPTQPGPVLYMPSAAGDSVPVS
Strand,bound/input enrichment
AAUAUAUAUCAAAUGGCGACAUUUGGAACAACAGCUGGUUUCUCUGGAAUAUUCUCAAACUUCCUGUUCAGACGCUGCUUCAAGGUUAAACAUGAUGCUUUGAAGACAUAUGCAUCAUUG,0.153 ratio
AGGGUGAUUUAUGAUGAGAAGAAAGGCACCGUGUACAGCUACUCCUAUUUCCACUUCGUCUUCUUCCUGGCUUCCCUCUACGUGAUGAUGACUCUGACCAGCUGGUUCCACUAUGAAAAU,0.312 ratio
GUGCUUCAGGUAGAUUCUGGUGCUAAUGCCACUGCCACAGCUCAGUGGUUUGGGGGCAAUAUUAGUGCUCCCUUCGAGGAUGCCUGCCCUCCUGAGGUGGAUUUUCUCAAGCAAGAUUGC,0.179 ratio
CCCGACGAUGAGGCCGCCAUGGGUAUUAAGAGCUGCGACCCCAAAGGCCCACUUAUGAUGUACAUUUCCAAGAUGGUGCCAACCUCUGACAAAGGCCGCUUCUAUGCCUUUGGUAGAGUG,0.327 ratio
CCAGCCUCGAUGACCUACGAUGACAUUCCGCACCUCUCAGCCAAGAUCAAGCCCAAGCAGCAGAAGGUAGAGCUUGAGAUGGCCAUCGACACCCUGAACCCCAACUAUUGCCGCAGCAAA,0.194 ratio
UUAGCUGAGGACAAGCCUGGUCCAGGUCCAUUUUCUGAUCAGUCUGAACCUGCAAUAACUACUAGUAGUCCUGUGGCUUUUAACCCAUUUCUCAUCCCAGGAGUAUCUCCUGGACUCAUU,0.272 ratio
AGGCGACAAAAGGCUAGAGAAAGGCAGCAGAAAUUGCUCGCAGAGUUUGCCUCACGACAGAAAAGCUUUAUGGAAACUGCAAUGGAUGUUGAUUCUCCUGAGAACGAUAUUCCUAUGGAA,0.0841 ratio
AUGAAUUCAUCUAAGAUCAUUCUUGAUUUUUUUAAAUCCUACACAUAAAUUGAAGCUUUAUGGUGUUGAAGUAAUCCAACACCUUAGUUACAUUUCAUUUUUGCUAAACUAUUCAAGUUG,0.272 ratio
UCACUUGAAAAUAAUGAAACAUUAGAAAGCAUAAUGAAUACCCUAGAGAGUGAAGAAGACUUUAGAAAAUAUUUUUAUUACUUGGAAGGAUCCAAAGAUGCUCUCCUUUGUGGUUUCAGC,11.3 ratio
GACACAAUCAUUAACCAGAAACGUUUCAAUGAUGGAUCUGAUGAAAAGAAGAAGCUGUACUGUAUUUAUGUUGCUAUUGGUCAAAAGAGAUCCACUGUUGCCCAGUUGGUGAAGAGACUU,0.341 ratio
AGUACACAAACUAAUGGACCUUCUGUUCCUAGUGAAGAAGAAAUUGUUCAGCCACUGGAUAGCACAAGAGUGGCUUCUUACAGUGGCACUGUUACUCAAGCCACAUUCACCAGGACUUAC,0.153 ratio

# Series 5
# Target: Sal-like protein 4, full length isoform A (SALL4, Homo sapiens, UniProt Q9UJQ4, residues 1-1053)
# Chain of UniProt Q9UJQ4 (whole entry, looked up): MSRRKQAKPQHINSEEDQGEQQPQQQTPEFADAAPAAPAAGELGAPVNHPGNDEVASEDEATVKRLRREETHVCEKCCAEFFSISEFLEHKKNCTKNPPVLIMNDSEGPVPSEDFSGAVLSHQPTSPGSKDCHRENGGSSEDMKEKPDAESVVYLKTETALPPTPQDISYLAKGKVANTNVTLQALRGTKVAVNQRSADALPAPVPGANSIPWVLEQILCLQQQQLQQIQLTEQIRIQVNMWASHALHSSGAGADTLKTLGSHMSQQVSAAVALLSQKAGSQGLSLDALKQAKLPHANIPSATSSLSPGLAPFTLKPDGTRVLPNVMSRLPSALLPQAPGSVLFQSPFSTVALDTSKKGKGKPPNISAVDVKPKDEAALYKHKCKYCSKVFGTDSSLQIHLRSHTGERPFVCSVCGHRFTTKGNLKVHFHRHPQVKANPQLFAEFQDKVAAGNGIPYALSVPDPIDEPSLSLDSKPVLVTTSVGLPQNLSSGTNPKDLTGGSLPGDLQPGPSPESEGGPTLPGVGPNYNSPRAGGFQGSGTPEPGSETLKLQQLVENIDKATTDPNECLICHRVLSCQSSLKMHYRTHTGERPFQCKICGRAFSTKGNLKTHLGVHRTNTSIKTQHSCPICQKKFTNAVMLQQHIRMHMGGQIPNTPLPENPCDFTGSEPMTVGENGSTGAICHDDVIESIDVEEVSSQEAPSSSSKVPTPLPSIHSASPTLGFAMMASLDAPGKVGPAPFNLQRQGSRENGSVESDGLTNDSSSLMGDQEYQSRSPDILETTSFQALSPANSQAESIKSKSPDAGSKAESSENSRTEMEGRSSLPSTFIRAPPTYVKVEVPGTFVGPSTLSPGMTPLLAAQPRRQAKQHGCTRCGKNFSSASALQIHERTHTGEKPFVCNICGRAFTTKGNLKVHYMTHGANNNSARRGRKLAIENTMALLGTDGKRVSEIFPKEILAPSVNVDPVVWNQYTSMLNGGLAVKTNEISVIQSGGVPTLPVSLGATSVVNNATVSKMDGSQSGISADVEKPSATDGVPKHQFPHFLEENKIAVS
# Method: universal PBM
# Form: double-stranded DNA, one strand shown
# Sample: in vitro
# Concentration: 600 nM
# Setting: 8-mer, flanks averaged, mean of replicates
# Reading: higher = stronger binding
Strand,E-score
AGGTCAGC,-0.106
TATTTCAA,0.4
ATTGAAGC,0.176
CAGGCTTC,-0.183
CATGGCAA,0.0394
ATGTGGAG,0.0655
GGTCTTCA,-0.0821
CAGATAAC,0.114
CCAAGAGA,-0.0194
ACAAGGGC,-0.281
GGCGCCCC,-0.409
AAGGAGGC,-0.261
GACCAAAA,0.183
TCATACGA,0.233
AGCTGGGA,-0.156
AGATCGCG,-0.254
CATCTTCC,0.0831

# Series 6
# Target: ABI1, truncated, D143A, DHFR fusion (Arabidopsis thaliana)
# Method: DHFR PCA, deep sequencing
# Sample: yeast
# Setting: methotrexate growth selection, single substitutions
# Together with: (+)-ABA 0.032 µM
# Reference: wild-type fitted maximum
# Reading: higher = stronger binding
# Parent: PYL1, truncated, DHFR fusion (Arabidopsis thaliana); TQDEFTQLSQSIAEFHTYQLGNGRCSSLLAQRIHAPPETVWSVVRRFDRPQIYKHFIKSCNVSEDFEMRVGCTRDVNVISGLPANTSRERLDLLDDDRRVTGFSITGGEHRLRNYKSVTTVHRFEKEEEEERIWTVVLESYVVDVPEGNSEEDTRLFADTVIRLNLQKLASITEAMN
Variant,relative binding score
E67K,18.5%
R46C,-2.75%
P83R,12.8%
E128M,16.9%
V40E,2.33%
P146R,5.58%
H122V,1.84%
T6L,33.6%
V70Y,3.43%
C25H,-10.3%
A170F,-40.3%
D48Y,1.94%
F15A,-2.28%
R69V,34.3%
L28R,4.58%
F103G,0.687%
R49C,24.7%
V78T,17%
R45Y,-0.826%
P146S,9.78%
C60N,-1.85%
R163G,8.06%
Q2N,19.8%
T1W,20.5%

# Some of these lines once more (series 1):
Variant,binding fitness [natural log]
Q55W,-0.204
K39T,0.172
R30E,0.207
M51E,0.0507
N42I,-1.03
M51L,0.0608
A57V,-0.022
T48Y,0.0065
K39W,-0.459
A40L,-0.0413
Q55I,-0.0569
L52F,-1.09
A57R,-0.0327
K34D,-0.112
L38E,-1.06
